{"data": "Measured values of several laboratories", "method": "steady-state kinetics", "B1": "msrA U16C (Clostridium oremlandii, UniProt A8MI53); chain MDTNQKLSIAVFALGCFWGPDAQFGSIKGVVSTRVGYAGGTTNNPSYYNLGDHSESIEIQYDANVITYGELLNIFWNLHNPVYETTNRQYMSRIFYLDDGQKSEALEMKRQIEAANGEKIYTEIVPLENFYLAEGYHQKYYLQNTTKLYQTLKAIYGGFGNLVRSTLAARMNGYIAGNLSIASLKEEMDLVELPEDQYEKVLSIVEEIK", "B2": "putA (Rhodobacter capsulatus, UniProt D5AN87); chain MTDLSALGPKAKFAPEAEVLQALVAQAALPQPQLDRIAARGADLVARIRAEAKPSLMEHFLAQYGLSTREGVALMCLAEAMLRVPDTATIDALIEDKIAPSDWGKHLGTAASSLVNASTWALMLTGKVLDDGAGGIAGTLRGAMRRLGEPVIRAAVGQAMREMGRQFVLGETIEKALERAEKREAEGYTFSYDMLGEAALTAADAERYRLAYAQAITAIGKAATRGSIAANPGISIKLSALHPRYEVAQEARVMAELVPVVRDLARAAARAGIALHIDAEEQDRLALSLRVMAAVIADPETAGWEGFGAVVQAYGKRAGAAIDALAAMARAAGRRINIRLVKGAYWDAEMKRAQVEGHPGFPLFTSKTGTDVAYICLAAKLFGLNDCIYPQFATHNAHTVAAVLEMAAGRPFEFQRLHGMGARLHDIVLRETGGRCRIYAPVGAHRDLLAYLVRRLLENGANSSFVNQIVNESVPPAEVAACPFAALPTARAPRGLLAPADLFGAGRVNAQGFDLSDPEVLARIEAARDVTLPDAAPIVAGPVSGTLRPVRNPATGAVVAQVTEADAATVALALDAAQVWSAPAATRAAVLCRAADLYEENFGPIFAALAQEAGKTLGDAVSELREAVDFLRYYAAEGAADTRPPRGAVVAISPWNFPLAIFTGQVAAALMAGNAVLAKPAEQTPIIAALAVRLLHQAGVPETALQLLPGDGPTVGAALTRDPRVAGVVFTGSTETAQIIARAMAAHLAPGTPLIAETGGLNAMVVDSTALPEQAVRDVVASAFRSAGQRCSALRCLYVQDDIAPHLIGMLKGAMEELVSGDPARLSTDVGPVIDAEAKAGIETYLAANKARILHRSTAPEGGHFVAPALLQVGGIADLEREIFGPVLHLATFAAEDLPAVIAAINARGYGLTFGLHSRIDARVETVAETIRAGNIYVNRNQIGAVVGSQPFGGEGLSGTGPKAGGPLYLNRFYAPEPVVAVGGWTEAATPILPEARETQLDEIFLPGPTGELNRLTRHQRGPILCLGPGAEAASAQAAAVVALGGQAVQASGAVSPKALETLTPLAGVLWWGAAEMGRAYAQALAVRPGPLVPLITAKPDLAHVAHERHLCVDTTAAGGNAALLAG", "B3": "protein (Cecembia lonarensis, UniProt K1KV82); chain QENKEKDRTPSSKHLTDNILQPKRSSDFMAFKYEYSTVDLYREFSESIMDKARSEVEILESVNRQGRYKPNVESLKLHEVPEWFEDAKLGIFLDWGPWSVPGYAPLKGAEASTGGSYPDWYEFLMDNLYKEYHDEVWGADFRRDDFLPLLTGENFNSEEYMLLAVNSGAKYFVPFTKHHAGWTMWESEFTKRNAVEMGPGRDIYKELIEAGKKYDMKMGFYFSVSEWEYPVIVDQNLSQWDPVKNLAIFQDALGQIPRATPLASYFPALHDRMISGKIPVKDYFADYMIPSFKEAVDKYDPDLVWYDGGWGSPVSISRTMETSAYFYNQAEGKKDVVINNRAGSSLSEDDLIKVRDLMDSGKRDEAMKIYLSGQQLGDYGTPEFTIGDVDIQSKWEVCRSISPAFGYNWQDDEASSLSGEELIKLFVDIVANNGNLLLVISPDGSGKLPDIQKDRLLELGDWMKVNAESIHNTRPWKVQKENDKFFTKSKDGKSLFVHCTNWPGENLIINTPIEEGIKGIKLLGSDINLQFTKASNGNLEIPIPKDFQNNPSLISKYVWTFKIDLN", "B4": "MCAT R178A (Homo sapiens, UniProt Q8IVS2); chain GQGSQVVGMGRGLLNYPRVRELYAAARRVLGYDLLELSLHGPQETLDRTVHCQPAIFVASLAAVEKLHHLQPSVIENCVAAAGFSVGEFAALVFAGAMEFAEGLYAVKIAAEAMQEASEAVPSGMLSVLGQPQSKFNFACLEAREHCKSLGIENPVCEVSNYLFPDCRVISGHQEALRFLQKNSSKFHFRRTRMLPVSGAFHTRLMEPAVEPLTQALKAVDIKKPLVSVYSNVHAHRYRHPGHIHKLLAQQLVSPVKWEQTMHAIYERKKGRGFPQTFEVGPGRQLGAILKSCNMQAWKSYSAVDVL", "B5": "ASRGL1 (Homo sapiens, UniProt Q7L266); chain 1 MNPIVVVHGGGAGPISKDRKERVHQGMVRAATVGYGILREGGSAVDAVEGAVVALEDDPEFNAGCGSVLNTNGEVEMDASIMDGKDLSAGAVSAVQCIANPIKLARLVMEKTPHCFLTDQGAAQFAAAMGVPEIPGEKLVTERNKKRLEKEKHEKGAQKTDCQKNLG; chain 2 TVGAVALDCKGNVAYATSTGGIVNKMVGRVGDSPCLGAGGYADNDIGAVSTTGHGESILKVNLARLTLFHIEQGKTVEEAADLSLGYMKSRVKGLGGLIVVSKTGDWVAKWTSTSMPWAAAKDGKLHFGIDPDDTTITDLP", "B6": "enzyme (UniProt A0A2T5C445); chain MKSKQLNTDLFKVQAKQQIRLKNYDPASCNGFANRKEAEHQLKQDIKELADLQYQLYAENKRSVLIVFQAMDAAGKDGSIRHVFSGLNPQGCKVYSFKSPSANELDHDYLWRHYNKLPPRGEIGIFNRSHYENVLITRVHPEFLLNENLPDVHATNDITTEFWERRYRQIRDFEQTLTENGTTIIKFFLHLSKDEQKKRFMERIRKPAKNWKFSSADIRERQYWDDYQHAYEQAMRATSTEEAPWYIIPADNKWFTHVAIGNIIVETLQQMNIQMPEISSEEKDALKKAKKKLQNE", "B7": "BaiA2 (Clostridium scindens, UniProt P19337); chain MNLVQDKVTIITGGTRGIGFAAAKIFIDNGAKVSIFGETQEEVDTALAQLKELYPEEEVLGFAPDLTSRDAVMAAVGQVAQKYGRLDVMINNAGITSNNVFSRVSEEEFKHIMDINVTGVFNGAWCAYQCMKDAKKGVIINTASVTGIFGSLSGVGYPASKASVIGLTHGLGREIIRKNIRVVGVAPGVVNTDMTNGNPPEIMEGYLKALPMKRMLEPEEIANVYLFLASDLASGITATTVSVDGAYRP", "B8": "YdjH (Escherichia coli, UniProt P77493); chain MDNLDVICIGAAIVDIPLQPVSKNIFDVDSYPLERIAMTTGGDAINEATIISRLGHRTALMSRIGKDAAGQFILDHCRKENIDIQSLKQDVSIDTSINVGLVTEDGERTFVTNRNGSLWKLNIDDVDFARFSQAKLLSLASIFNSPLLDGKALTEIFTQAKARQMIICADMIKPRLNETLDDICEALSYVDYLFPNFAEAKLLTGKETLDEIADCFLACGVKTVVIKTGKDGCFIKRGDMTMKVPAVAGITAIDTIGAGDNFASGFIAALLEGKNLRECARFANATAAISVLSVGATTGVKNRKLVEQLLEEYEG", "B9": "ERAP1 K528R (Homo sapiens, UniProt Q9NZ08); chain MVFLPLKWSLATMSFLLSSLLALLTVSTPSWCQSTEASPKRSDGTPFPWNKIRLPEYVIPVHYDLLIHANLTTLTFWGTTKVEITASQPTSTIILHSHHLQISRATLRKGAGERLSEEPLQVLEHPRQEQIALLAPEPLLVGLPYTVVIHYAGNLSETFHGFYKSTYRTKEGELRILASTQFEPTAARMAFPCFDEPAFKASFSIKIRREPRHLAISNMPLVKSVTVAEGLIEDHFDVTVKMSTYLVAFIISDFESVSKITKSGVKVSVYAVPDKINQADYALDAAVTLLEFYEDYFSIPYPLPKQDLAAIPDFQSGAMENWGLTTYRESALLFDAEKSSASSKLGITMTVAHELAHQWFGNLVTMEWWNDLWLNEGFAKFMEFVSVSVTHPELKVGDYFFGKCFDAMEVDALNSSHPVSTPVENPAQIREMFDDVSYDKGACILNMLREYLSADAFKSGIVQYLQKHSYKNTKNEDLWDSMASICPTDGVKGMDGFCSRSQHSSSSSHWHQEGVDVKTMMNTWTLQRGFPLITITVRGRNVHMKQEHYMKGSDGAPDTGYLWHVPLTFITSKSDMVHRFLLKTKTDVLILPEEVEWIKFNVGMNGYYIVHYEDDGWDSLTGLLKGTHTAVSSNDRASLINNAFQLVSIGKLSIEKALDLSLYLKHETEIMPVFQGLNELIPMYKLMEKRDMNEVETQFKAFLIRLLRDLIDKQTWTDEGSVSERMLRSQLLLLACVHNYQPCVQRAEGYFRKWKESNGNLSLPVDVTLAVFAVGAQSTEGWDFLYSKYQFSLSSTEKSQIEFALCRTQNKEKLQWLLDESFKGDKIKTQEFPQILTLIGRNPVGYPLAWQFLRKNWNKLVQKFELGSSSIAHMVMGTTNQFSTRTRLEEVKGFFSSLKENGSQLRCVQQTIETIEENIGWMDKNFDKIRVWLQSEKLEHDPEADATG", "B10": "enzyme (Lactococcus lactis, UniProt Q48662); chain MRAHEILNNPFLNKGTAFTMKERQELGLIGLLPPTVQTIEEQAEQTYEQYLTKPSDLEKRHFLMEIFNTNRTLFYYLFNKHIVEFNPVVYDPTIADTIENYSHLFVDPQYAAYLDINHPENITETLKNAAGDREIRLIVVTDAEGILGIGDWGTQGVDISVGKLMIYTAAAGIDPASVLPVVIDAGTNRKELLEDHLYLGNHQERIYGDQYYSFVDQFVETAESIFPKLYLHWEDFGRSNAATILNNYKTKIPTFNDDIQGTGIVVLGGIFGSLDITGEKLTDQVYLCYGGGSAGAGIAGRVHAEMVSEGLSEEEAYKHFFMIDQQGLLFDDMEDLTPAQKPFAKKRADYKDAGDMTDLLNVVKTVKPTILVGTSTNPGAFTKEVVEAMCANTERPVIFPISNPTKKMETTAEQVIEWSDGKAFVATGVPSGTISYKGVDYQIGQANNSLIYPGLGLGMLASEAKLLTDEMIGAAAHSLSGLVDPGKPGAPVLPPFEFVADVSIKVAEAVAKKAQEQGLTESKETDMAKAVRDLKWYPEY", "note": "Each line is one published result; not all experiments were run side by side. ± gives the spread as reported."}
{"Sequence": "B1 (msrA U16C)", "substrate": "CN(C)c1ccc(N=Nc2ccc(S(=O)(=O)N[C@@H](CC[S@+](C)[O-])C(=O)O)cc2)cc1", "conditions": "pH 7.5, 37 °C, 50 mM NaCl, Km above tested range, added: 20 mM DTT reductant", "kcat": "3.8 ± 0.3 s⁻¹"}
{"Sequence": "B2 (putA)", "substrate": "O=C(O)[C@@H]1CCCN1", "conditions": "pH 8, 23 °C", "kcat": "20.7 ± 0.4 s⁻¹"}
{"Sequence": "B3 (protein)", "substrate": "C[C@@H]1O[C@@H](Oc2ccc([N+](=O)[O-])cc2)[C@@H](O)[C@H](O)[C@H]1O", "conditions": "pH 5.5, 35 °C", "kcat": "4.59 ± 0.37 s⁻¹"}
{"Sequence": "B4 (MCAT R178A)", "substrate": "CC(C)(COP(=O)(O)OP(=O)(O)OC[C@H]1O[C@@H](n2cnc3c(N)ncnc32)[C@H](O)[C@@H]1OP(=O)(O)O)[C@@H](O)C(=O)NCCC(=O)NCCSC(=O)CC(=O)O", "conditions": "pH 6.8, 20 °C, labelled substrate, added: holo-ACP 20 µM", "kcat": "0.00617 ± 0.000333 s⁻¹"}
{"Sequence": "B5 (ASRGL1)", "substrate": "CC(C)C[C@H](NC(=O)C[C@H](N)C(=O)O)C(=O)O", "conditions": "pH 7.4, 37 °C, NaCl 100 mM", "kcat": "5 ± 0.2 s⁻¹"}
{"Sequence": "B6 (enzyme)", "substrate": "Nc1ncnc2c1ncn2[C@@H]1O[C@H](COP(=O)(O)O)[C@@H](O)[C@H]1O", "conditions": "pH 8, 30 °C", "kcat": "98 ± 9.8 s⁻¹"}
{"Sequence": "B7 (BaiA2)", "substrate": "NC(=O)c1ccc[n+]([C@@H]2O[C@H](COP(=O)(O)OP(=O)(O)OC[C@H]3O[C@@H](n4cnc5c(N)ncnc54)[C@H](O)[C@@H]3O)[C@@H](O)[C@H]2O)c1", "conditions": "pH 8.7, 37 °C, cofactor from expression host, cofactor varied", "kcat": "0.0883 s⁻¹"}
{"Sequence": "B8 (YdjH)", "substrate": "O=C(O)[C@H](O)[C@@H](O)[C@H](O)[C@H](O)CO", "conditions": "pH 7.4, 30 °C, KCl 100 mM, added: ATP 2.0 mM, MgCl2 5.0 mM", "kcat": "0.025 ± 0.001 s⁻¹"}
{"Sequence": "B9 (ERAP1 K528R)", "substrate": "CC(C)C[C@H](N)C(=O)N[C@@H](CO)C(=O)N[C@@H](CCCNC(=N)N)C(=O)N[C@@H](Cc1c[nH]cn1)C(=O)N[C@@H](Cc1c[nH]cn1)C(=O)N[C@@H](C)C(=O)N[C@@H](Cc1ccccc1)C(=O)N[C@@H](CO)C(=O)N[C@@H](Cc1ccccc1)C(=O)N[C@@H](CCCNC(=N)N)C(=O)O", "conditions": "25 °C", "kcat": "0.679 ± 0.037 s⁻¹"}
{"Sequence": "B10 (enzyme)", "substrate": "O=C(O)C[C@H](O)C(=O)O", "conditions": "pH 7, 30 °C, apparent", "kcat": "266 ± 14 s⁻¹"}
{"note": "For quick reference, copied from above:"}
{"Sequence": "B4 (MCAT R178A)", "substrate": "CC(C)(COP(=O)(O)OP(=O)(O)OC[C@H]1O[C@@H](n2cnc3c(N)ncnc32)[C@H](O)[C@@H]1OP(=O)(O)O)[C@@H](O)C(=O)NCCC(=O)NCCSC(=O)CC(=O)O", "conditions": "pH 6.8, 20 °C, labelled substrate, added: holo-ACP 20 µM", "kcat": "0.00617 ± 0.000333 s⁻¹"}
